Experimental data from different studies.
Compare with care: the assays were run in different laboratories. ± gives the spread as reported.
CTSD: Cathepsin D (CTSD, Homo sapiens, UniProt P07339)
Chain of UniProt P07339 (whole entry, looked up): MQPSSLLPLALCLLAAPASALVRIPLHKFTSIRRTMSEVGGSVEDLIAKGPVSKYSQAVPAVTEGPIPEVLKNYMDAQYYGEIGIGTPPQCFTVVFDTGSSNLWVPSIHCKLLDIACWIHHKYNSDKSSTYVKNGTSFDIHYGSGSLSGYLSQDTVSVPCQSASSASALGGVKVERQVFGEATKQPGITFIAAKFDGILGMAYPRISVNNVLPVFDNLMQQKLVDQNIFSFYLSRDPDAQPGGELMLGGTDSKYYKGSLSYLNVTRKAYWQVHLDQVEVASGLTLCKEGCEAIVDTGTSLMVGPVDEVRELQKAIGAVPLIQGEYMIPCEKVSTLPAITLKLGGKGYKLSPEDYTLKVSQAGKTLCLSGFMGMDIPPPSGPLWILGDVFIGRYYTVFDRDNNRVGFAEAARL
CYP3A4: Cytochrome P450 3A4 (CYP3A4, Homo sapiens, UniProt P08684)
Chain of UniProt P08684 (whole entry, looked up): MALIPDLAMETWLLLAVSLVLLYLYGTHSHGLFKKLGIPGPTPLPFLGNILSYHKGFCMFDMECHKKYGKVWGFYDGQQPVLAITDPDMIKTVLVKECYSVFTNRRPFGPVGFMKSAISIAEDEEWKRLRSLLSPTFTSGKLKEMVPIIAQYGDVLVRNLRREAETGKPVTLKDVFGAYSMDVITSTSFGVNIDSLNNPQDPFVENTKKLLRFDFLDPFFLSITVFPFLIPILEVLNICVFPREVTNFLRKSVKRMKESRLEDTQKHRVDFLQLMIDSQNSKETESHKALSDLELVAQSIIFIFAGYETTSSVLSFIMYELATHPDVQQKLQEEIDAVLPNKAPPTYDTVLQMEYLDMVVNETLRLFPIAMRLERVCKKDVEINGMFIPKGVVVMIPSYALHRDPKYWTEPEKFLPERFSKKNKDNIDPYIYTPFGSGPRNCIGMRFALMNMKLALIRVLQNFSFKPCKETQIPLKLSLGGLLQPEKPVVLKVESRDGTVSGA
Chain of UniProt P33527 (whole entry, looked up): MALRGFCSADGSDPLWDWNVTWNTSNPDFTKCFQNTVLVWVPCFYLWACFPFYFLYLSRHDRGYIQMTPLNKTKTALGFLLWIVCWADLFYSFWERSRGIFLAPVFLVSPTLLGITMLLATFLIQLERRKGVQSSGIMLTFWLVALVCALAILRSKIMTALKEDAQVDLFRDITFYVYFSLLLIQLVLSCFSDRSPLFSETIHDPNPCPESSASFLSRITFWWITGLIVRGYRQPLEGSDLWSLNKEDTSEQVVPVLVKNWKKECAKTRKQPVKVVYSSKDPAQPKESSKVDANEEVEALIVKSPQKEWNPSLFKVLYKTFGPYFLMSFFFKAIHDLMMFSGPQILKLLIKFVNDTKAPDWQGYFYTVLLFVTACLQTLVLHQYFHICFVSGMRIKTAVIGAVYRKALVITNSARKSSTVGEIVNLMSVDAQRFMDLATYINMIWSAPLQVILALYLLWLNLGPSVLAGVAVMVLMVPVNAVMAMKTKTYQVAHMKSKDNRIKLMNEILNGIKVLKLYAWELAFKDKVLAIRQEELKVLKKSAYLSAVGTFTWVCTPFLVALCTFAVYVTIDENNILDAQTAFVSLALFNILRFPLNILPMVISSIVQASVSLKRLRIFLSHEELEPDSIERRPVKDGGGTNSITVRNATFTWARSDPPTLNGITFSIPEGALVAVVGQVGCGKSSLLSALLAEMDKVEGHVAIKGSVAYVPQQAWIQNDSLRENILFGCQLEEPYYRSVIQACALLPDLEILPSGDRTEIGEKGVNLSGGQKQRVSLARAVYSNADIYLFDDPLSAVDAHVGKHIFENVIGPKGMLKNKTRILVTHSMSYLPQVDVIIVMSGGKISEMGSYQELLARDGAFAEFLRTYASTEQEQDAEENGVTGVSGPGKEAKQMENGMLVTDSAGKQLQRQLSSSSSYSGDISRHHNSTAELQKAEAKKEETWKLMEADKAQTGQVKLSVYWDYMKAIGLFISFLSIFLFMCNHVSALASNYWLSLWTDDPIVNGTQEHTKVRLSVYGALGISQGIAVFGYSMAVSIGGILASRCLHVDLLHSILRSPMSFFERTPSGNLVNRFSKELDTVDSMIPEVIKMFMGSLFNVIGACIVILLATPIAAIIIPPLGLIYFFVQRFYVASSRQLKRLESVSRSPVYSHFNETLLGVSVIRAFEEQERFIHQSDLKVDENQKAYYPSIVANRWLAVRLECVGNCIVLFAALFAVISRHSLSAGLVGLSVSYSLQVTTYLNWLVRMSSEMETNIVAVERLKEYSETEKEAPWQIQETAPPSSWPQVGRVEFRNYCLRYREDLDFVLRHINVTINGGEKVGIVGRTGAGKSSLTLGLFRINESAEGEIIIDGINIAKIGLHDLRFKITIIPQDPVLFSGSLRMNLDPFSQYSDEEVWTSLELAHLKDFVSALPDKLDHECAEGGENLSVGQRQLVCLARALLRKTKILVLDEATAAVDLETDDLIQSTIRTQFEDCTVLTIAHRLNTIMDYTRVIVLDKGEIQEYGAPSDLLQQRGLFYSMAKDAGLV
Chain of UniProt Q12809 (whole entry, looked up): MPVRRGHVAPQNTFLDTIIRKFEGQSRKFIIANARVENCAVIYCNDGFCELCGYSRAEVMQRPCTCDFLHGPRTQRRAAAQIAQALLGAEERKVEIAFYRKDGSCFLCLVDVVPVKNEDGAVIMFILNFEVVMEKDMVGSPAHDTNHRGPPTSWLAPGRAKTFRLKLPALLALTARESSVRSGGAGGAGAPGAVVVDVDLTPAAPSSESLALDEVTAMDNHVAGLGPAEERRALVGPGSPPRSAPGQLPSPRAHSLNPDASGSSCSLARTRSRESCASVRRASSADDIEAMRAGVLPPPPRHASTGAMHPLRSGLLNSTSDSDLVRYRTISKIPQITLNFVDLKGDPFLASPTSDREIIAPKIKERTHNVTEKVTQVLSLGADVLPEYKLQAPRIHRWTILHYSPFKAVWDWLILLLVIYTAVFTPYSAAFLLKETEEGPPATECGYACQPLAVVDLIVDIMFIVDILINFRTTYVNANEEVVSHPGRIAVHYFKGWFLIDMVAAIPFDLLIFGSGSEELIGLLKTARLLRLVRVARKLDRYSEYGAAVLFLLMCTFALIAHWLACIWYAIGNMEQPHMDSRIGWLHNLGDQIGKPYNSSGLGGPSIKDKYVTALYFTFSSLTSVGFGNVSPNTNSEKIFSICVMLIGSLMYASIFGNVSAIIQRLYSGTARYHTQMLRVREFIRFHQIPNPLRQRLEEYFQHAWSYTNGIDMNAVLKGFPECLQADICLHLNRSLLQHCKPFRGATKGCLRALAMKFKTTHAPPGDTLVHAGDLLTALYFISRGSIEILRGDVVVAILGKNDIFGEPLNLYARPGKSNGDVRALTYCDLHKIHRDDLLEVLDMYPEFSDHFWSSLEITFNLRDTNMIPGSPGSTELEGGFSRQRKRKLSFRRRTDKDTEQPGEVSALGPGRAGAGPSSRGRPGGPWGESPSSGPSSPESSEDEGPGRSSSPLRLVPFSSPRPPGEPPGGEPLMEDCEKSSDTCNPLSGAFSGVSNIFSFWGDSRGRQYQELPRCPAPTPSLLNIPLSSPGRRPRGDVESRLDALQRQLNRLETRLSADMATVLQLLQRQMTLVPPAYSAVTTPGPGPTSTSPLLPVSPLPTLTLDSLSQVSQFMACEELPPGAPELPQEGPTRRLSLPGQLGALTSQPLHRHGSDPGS
Chain of UniProt Q16696 (whole entry, looked up): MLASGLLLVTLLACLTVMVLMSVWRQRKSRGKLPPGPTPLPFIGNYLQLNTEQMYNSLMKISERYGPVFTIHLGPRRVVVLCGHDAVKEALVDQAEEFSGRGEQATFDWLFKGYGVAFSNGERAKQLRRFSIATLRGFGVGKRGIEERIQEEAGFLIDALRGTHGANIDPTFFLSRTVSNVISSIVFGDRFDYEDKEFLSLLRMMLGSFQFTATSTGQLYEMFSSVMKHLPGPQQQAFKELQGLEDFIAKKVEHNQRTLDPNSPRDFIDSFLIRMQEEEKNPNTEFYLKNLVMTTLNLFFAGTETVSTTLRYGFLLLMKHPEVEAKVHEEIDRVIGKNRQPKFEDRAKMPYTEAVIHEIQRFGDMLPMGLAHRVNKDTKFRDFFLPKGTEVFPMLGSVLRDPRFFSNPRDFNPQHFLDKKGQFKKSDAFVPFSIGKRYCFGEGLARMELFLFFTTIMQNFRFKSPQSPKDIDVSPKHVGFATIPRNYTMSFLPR

CC(C)CC(=O)N[C@H](C(=O)N[C@H](C(=O)N[C@@H](CC(C)C)[C@@H](O)CC(=O)N[C@@H](C)C(=O)N[C@@H](CC(C)C)[C@@H](O)CC(N)=O)C(C)C)C(C)C — dissociation half-life (CTSD; SPR): 7.22 min
COc1ccc2[nH]c([S+]([O-])Cc3ncc(C)c(OC)c3C)nc2c1 (stereo not drawn) — relative enzyme activity (CYP1A2 human; inducer; hepatocytes lot LTG; 100 µM; relative to: DMSO): 87.5
Cc1cc(Nc2ncnc3ccc(NC4=NC(C)(CO)CO4)cc23)ccc1Oc1ccn2ncnc2c1 (stereo not drawn) — AUC(0-t) (geometric mean) (CYP3A4; human, plasma; tucatinib, day 6, added: itraconazole): 754 ng·h/mL
COc1ccc(-c2cc(=O)c3c(O)cc(O)cc3o2)cc1OC — IC50 (Cytochrome P450 2A13 (Homo sapiens, UniProt Q16696); enzyme activity, inhibitor; added: 10 µM coumarin): > 200 µM
CC(C)=CCc1c(O)cc2c(c1O)C(=O)C[C@@H](c1ccc(O)cc1)O2 — inhibition (human CYP3A4; 1 µM, pH 7.4): < 10%
O=C(/C=C/c1cccnc1)NCCCCC1CCN(C(=O)c2ccccc2)CC1 — aminopyrine N-demethylase activity (rat cytochrome P450; inhibitor; rat liver microsomes; 100 µM, 15 min, pH 7.4, added: aminopyrine 2 mM): 3.54 nmol/min/mg
CC(C)=CCc1c(O)cc(O)c2c1O[C@H](c1ccc(O)cc1)CC2=O — inhibition (human CYP3A4; 1 µM, pH 7.4): < 10%
CC(C)CC(=O)N[C@H](C(=O)N[C@H](C(=O)N[C@@H](CC(C)C)[C@@H](O)CC(=O)N[C@@H](C)C(=O)N[C@@H](CC(C)C)[C@@H](O)CC(=O)NCCOCCC(=O)NCCCC[C@H](NC(=O)CN1CCN(CC(=O)O)CCN(CC(=O)O)CC1)C(=O)O)C(C)C)C(C)C — dissociation half-life (CTSD; SPR): 15.5 min
CCn1c(C(=O)N(C2CC2)C2CC2)cc2c3c(ncn3C)c(Nc3cc(C)n(C)n3)nc21 — EC50 (CYP1A2 (human); inducer, refers to: CYP1A2 mRNA; cultured human hepatocytes; 3 days): 2.7 µM
CCCCC1=NC2(CCCC2)C(=O)N1Cc1ccc(-c2ccccc2S(=O)(=O)Nc2noc(C)c2C)c(COCC)c1 — EC50 (CYP2C19; enzyme induction, inducer; human): 1.75 µM
NC/C(=C\F)COc1cccc(Cn2c(=S)[nH]c(=O)c3[nH]cnc32)c1 — inhibition (Multidrug resistance-associated protein 1 (ABCC1, Homo sapiens, UniProt P33527); calcein AM efflux; HEK293 expressing ABCC1; 30 µM): < 50%
CNCc1cc(-c2ccccc2F)n(S(=O)(=O)c2cccnc2)c1 — fraction metabolised (CYP2C19; recombinant CYP with ISEF scaling): 5.5%
COc1cc2c(c(OC)c1OC)-c1c(cc3c(c1OC)OCO3)[C@H](OC(=O)c1ccccc1)[C@@](C)(O)[C@@H](C)C2 — IC50 ratio (human recombinant CYP3A4 and CYP3A5; refers to: oxidized nifedipine; 15 min, pH 7.4, added: nifedipine 20 µM; relative to: CYP3A4 over CYP3A5): 4.3
O=C(Nc1c2c(cc3c1CCC3)CCC2)NS(=O)(=O)/C=C/c1nccs1 — inhibition (human CYP3A4; human liver microsomes; 2 µM, pH 7.4, added: testosterone): 0.6%
Cc1oc2ccccc2c1Cc1cc(I)c(OCC(=O)O)c(I)c1 — current (Voltage-gated inwardly rectifying potassium channel KCNH2 (KCNH2, Homo sapiens, UniProt Q12809); potassium current, whole-cell patch clamp, refers to: plateau current; HEK293 expressing hERG1; 10 µM, repetitive pulsing to -20 mV, 4 mM K+; relative to: control): 264 ± 2%
CC[C@H]1[C@@H](O)[C@@H]2[C@H](CC[C@]3(C)[C@@H]([C@H](C)CCNC(=O)NS(=O)(=O)c4ccc(C(C)(C)C)cc4)CC[C@@H]23)[C@@]2(C)CC[C@@H](O)C[C@@H]12 — Tmax median (CYP3A4; human, plasma; dose not given, added: fluconazole): 275 min
C[C@H]1CN(C2COC2)CCN1c1ccc(Nc2cc(-c3ccnc(N4CCn5c(cc6c5CC(C)(C)C6)C4=O)c3CO)cn(C)c2=O)nc1 — remaining compound (human liver microsomes CYP; human liver microsomes; 1 µM, 60 min, pH 7.4, added: no NADPH; relative to: 0 min): 97.5 ± 11.5%
C=CC(=O)Nc1cc(Nc2nccc(Nc3cc(Cl)c(F)cc3C(C)(C)O)n2)c(OC)cc1N1CC[C@@H](N(C)C)C1 — efflux ratio (MDR1 and BCRP; MDCKII-MDR1-BCRP; 1 µM, 2 h, pH 7.4): 14.1 ± 7

For quick reference, copied from above:
CC(C)CC(=O)N[C@H](C(=O)N[C@H](C(=O)N[C@@H](CC(C)C)[C@@H](O)CC(=O)N[C@@H](C)C(=O)N[C@@H](CC(C)C)[C@@H](O)CC(=O)NCCOCCC(=O)NCCCC[C@H](NC(=O)CN1CCN(CC(=O)O)CCN(CC(=O)O)CC1)C(=O)O)C(C)C)C(C)C — dissociation half-life (CTSD; SPR): 15.5 min
CCn1c(C(=O)N(C2CC2)C2CC2)cc2c3c(ncn3C)c(Nc3cc(C)n(C)n3)nc21 — EC50 (CYP1A2 (human); inducer, refers to: CYP1A2 mRNA; cultured human hepatocytes; 3 days): 2.7 µM
CCCCC1=NC2(CCCC2)C(=O)N1Cc1ccc(-c2ccccc2S(=O)(=O)Nc2noc(C)c2C)c(COCC)c1 — EC50 (CYP2C19; enzyme induction, inducer; human): 1.75 µM
